Assay results gathered from unrelated publications.
Every numbered part comes from another study and shows a few of its results, in no order. Several values in a cell are separate wells, animals, samples, runs or records.
Sequence of UniProt P23443 (whole entry, looked up): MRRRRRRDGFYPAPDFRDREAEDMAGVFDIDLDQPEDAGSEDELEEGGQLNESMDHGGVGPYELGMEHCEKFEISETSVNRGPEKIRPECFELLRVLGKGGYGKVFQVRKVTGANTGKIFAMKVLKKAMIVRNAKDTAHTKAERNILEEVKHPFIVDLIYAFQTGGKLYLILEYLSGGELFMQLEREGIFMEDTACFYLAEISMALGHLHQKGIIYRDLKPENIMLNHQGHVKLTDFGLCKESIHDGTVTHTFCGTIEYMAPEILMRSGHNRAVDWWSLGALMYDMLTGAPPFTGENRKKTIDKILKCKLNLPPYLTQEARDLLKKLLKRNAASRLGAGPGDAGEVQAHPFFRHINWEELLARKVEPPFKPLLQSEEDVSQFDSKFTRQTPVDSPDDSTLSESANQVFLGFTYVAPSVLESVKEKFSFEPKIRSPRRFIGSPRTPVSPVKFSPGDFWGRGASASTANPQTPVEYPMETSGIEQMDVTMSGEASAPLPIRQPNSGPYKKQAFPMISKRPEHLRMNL
Sequence of UniProt Q9Y2U5 (whole entry, looked up): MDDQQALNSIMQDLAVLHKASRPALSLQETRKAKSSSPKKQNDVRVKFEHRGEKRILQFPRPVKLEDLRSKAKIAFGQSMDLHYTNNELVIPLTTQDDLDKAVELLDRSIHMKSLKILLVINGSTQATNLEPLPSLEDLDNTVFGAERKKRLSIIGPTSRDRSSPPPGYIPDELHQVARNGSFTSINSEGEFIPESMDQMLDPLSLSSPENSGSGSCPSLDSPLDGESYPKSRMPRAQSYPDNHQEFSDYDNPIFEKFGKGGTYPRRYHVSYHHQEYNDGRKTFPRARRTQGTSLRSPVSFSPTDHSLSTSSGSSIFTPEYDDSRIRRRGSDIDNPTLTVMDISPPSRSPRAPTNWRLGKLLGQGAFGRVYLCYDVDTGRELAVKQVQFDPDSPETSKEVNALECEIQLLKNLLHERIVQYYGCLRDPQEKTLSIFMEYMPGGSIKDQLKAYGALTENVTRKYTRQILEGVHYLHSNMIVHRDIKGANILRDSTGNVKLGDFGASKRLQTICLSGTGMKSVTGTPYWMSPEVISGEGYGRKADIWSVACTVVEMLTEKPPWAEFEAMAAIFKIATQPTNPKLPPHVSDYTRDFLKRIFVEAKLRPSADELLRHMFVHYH
Sequence of UniProt P09769 (whole entry, looked up): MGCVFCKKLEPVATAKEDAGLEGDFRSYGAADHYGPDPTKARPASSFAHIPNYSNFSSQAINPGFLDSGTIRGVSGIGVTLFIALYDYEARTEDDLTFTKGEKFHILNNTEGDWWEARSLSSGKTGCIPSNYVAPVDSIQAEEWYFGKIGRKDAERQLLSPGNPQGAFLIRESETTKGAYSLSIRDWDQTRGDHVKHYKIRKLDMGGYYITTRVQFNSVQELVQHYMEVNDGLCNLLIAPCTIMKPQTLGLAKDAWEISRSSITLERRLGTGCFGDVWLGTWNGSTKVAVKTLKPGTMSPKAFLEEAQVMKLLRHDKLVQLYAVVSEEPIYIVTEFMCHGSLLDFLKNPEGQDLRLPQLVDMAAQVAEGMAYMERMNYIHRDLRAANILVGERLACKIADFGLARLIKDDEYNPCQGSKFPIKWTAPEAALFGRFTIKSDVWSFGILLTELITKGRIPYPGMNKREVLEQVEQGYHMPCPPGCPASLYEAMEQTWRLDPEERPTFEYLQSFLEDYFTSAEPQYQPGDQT
Sequence of UniProt O75582 (whole entry, looked up): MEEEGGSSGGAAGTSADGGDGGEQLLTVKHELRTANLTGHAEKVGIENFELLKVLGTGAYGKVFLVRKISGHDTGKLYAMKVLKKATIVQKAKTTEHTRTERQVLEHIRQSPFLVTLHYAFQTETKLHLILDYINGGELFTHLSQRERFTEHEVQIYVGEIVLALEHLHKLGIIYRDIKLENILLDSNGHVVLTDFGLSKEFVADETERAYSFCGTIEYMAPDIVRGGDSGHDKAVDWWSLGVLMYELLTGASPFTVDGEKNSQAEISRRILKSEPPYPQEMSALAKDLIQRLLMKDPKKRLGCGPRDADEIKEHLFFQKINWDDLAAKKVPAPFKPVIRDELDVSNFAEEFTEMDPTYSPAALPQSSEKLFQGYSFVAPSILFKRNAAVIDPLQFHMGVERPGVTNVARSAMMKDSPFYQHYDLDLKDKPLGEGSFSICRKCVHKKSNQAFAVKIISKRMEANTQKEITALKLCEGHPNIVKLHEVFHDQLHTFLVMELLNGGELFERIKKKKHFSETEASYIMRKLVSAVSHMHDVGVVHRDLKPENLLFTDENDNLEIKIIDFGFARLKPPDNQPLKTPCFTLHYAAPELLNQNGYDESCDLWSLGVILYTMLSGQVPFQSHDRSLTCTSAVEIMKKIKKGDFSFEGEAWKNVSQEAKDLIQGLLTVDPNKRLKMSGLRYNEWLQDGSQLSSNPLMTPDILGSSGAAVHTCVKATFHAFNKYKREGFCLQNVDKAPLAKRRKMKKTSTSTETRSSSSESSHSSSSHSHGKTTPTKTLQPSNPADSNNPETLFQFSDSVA

Study 1 — technique: phase 2a trial; host: idiopathic pulmonary fibrosis patients
Structure (SMILES): CC(C)n1cnc(-c2ccc(F)cc2)c1-c1ncc(C(=O)Nc2ccc(N3CCN(C)CC3)cc2)[nH]1
dose	notes	patients with ALT increased
dose not given	grade 3, arms pooled	1%
dose not given	adverse event grade 4, all dose arms pooled	0%
30 mg once daily	adverse event grade 1	1%
30 mg once daily	adverse event grade 3	0%
dose not given	grade 1, arms pooled	5%
30 mg once daily	adverse event grade 4	0%
60 mg once daily	adverse event grade 2	2%
dose not given	grade 2, arms pooled	2%

Study 2 — concentration: 1 µM
Compound: COc1ccc2[nH]c3c4[nH]c5ccc(OC)cc5c4c4c(c3c2c1)C(=O)NC4=O
target	technique	notes	relative to	remaining binding [%]
WNK2 (Homo sapiens, UniProt Q9Y3S1)	competitive binding panel	–	vehicle	66
CSNK2A1 (Homo sapiens, UniProt P68400)	competitive binding panel	–	vehicle	61
FGR (Homo sapiens, UniProt P09769)	competitive binding panel	–	vehicle	68
IRAK4 (Homo sapiens, UniProt Q9NWZ3)	competitive binding panel	–	vehicle	76
MAP4K4 (Homo sapiens, UniProt O95819)	competitive binding panel	–	vehicle	2.7
TEK (Homo sapiens, UniProt Q02763)	competitive binding	TIE2	–	100

Study 3 — observed: enzyme activity; mode: inhibitor; concentration: 77 µM; relative to: untreated
Target: DNA polymerase theta, ATPase domain (POLQ, Homo sapiens, UniProt O75417)
Sequence of UniProt O75417 (whole entry, unmodified, looked up): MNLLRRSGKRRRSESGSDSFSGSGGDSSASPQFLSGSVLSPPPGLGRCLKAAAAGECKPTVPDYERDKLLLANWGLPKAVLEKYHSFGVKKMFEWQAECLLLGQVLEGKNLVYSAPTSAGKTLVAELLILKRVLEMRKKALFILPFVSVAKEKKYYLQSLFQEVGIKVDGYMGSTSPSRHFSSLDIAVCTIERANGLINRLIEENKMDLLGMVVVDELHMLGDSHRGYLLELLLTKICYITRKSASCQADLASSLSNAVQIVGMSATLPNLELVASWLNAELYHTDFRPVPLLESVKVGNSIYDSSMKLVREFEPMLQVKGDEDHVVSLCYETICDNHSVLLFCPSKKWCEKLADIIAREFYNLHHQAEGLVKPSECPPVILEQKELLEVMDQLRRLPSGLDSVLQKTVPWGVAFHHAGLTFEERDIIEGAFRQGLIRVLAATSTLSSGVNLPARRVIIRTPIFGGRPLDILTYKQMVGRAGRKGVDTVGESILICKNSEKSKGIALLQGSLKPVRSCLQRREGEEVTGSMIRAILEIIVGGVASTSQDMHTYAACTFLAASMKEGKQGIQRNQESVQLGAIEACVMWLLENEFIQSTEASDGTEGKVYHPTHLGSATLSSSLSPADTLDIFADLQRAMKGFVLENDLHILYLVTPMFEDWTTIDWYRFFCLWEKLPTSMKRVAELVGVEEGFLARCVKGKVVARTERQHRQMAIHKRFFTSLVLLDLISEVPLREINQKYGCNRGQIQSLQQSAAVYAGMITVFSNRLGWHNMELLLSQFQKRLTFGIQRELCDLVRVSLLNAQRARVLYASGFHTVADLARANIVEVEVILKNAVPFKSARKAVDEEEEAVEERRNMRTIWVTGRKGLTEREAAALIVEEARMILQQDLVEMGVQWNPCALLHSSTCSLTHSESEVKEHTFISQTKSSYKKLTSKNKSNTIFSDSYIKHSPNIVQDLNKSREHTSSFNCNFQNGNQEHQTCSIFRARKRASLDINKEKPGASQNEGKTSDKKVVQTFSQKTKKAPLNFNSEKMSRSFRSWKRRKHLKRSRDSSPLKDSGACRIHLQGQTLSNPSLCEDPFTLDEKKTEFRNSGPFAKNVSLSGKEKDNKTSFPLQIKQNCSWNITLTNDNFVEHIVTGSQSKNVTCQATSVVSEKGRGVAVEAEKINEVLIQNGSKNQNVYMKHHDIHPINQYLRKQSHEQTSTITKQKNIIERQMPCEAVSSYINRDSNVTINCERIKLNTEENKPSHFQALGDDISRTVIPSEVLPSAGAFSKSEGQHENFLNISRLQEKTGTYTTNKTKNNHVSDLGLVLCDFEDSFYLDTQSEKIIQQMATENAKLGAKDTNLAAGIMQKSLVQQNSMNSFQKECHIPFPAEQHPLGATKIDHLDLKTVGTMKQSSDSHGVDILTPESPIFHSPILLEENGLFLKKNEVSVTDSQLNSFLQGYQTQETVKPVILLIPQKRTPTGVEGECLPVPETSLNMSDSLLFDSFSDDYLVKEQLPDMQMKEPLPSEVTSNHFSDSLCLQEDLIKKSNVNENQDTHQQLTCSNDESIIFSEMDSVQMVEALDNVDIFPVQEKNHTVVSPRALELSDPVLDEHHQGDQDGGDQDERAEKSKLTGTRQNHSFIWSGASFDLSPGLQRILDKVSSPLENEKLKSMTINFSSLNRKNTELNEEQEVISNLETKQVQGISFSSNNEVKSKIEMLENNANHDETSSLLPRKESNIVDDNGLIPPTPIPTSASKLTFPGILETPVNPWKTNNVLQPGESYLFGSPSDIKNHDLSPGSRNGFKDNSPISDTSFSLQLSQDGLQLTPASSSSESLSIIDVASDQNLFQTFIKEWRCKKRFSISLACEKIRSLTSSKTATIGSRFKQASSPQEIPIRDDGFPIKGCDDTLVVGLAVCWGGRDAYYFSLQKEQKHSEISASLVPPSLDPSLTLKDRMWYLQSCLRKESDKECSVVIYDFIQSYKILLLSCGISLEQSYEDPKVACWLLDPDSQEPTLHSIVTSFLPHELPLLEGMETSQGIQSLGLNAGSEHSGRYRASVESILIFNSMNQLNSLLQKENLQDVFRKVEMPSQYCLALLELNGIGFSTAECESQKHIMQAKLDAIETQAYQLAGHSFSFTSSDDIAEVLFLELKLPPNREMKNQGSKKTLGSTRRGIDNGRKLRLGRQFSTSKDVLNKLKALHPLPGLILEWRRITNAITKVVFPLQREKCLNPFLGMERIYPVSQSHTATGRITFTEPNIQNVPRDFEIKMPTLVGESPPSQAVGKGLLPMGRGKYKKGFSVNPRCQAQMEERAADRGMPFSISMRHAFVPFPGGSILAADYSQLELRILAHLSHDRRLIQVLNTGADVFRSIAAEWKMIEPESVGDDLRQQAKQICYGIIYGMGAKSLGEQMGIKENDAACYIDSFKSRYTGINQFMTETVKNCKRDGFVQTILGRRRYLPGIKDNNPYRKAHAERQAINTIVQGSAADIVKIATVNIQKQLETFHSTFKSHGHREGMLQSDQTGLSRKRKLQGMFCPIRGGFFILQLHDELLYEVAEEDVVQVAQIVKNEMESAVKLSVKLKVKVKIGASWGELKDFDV
SMILES	remaining activity
COc1ccc([C@@H]2CC(=O)c3c(O)cc(O[C@@H]4O[C@H](CO[C@@H]5O[C@@H](C)[C@H](O)[C@@H](O)[C@H]5O)[C@@H](O)[C@H](O)[C@H]4O)cc3O2)cc1O	95.4% and 93.6%
CCOC(=O)[C@H](CCc1ccccc1)N[C@@H](C)C(=O)N1Cc2cc(OC)c(OC)cc2C[C@H]1C(=O)O	102%
CC(C)c1cc(C(=O)N2Cc3ccc(CN4CCN(C)CC4)cc3C2)c(O)cc1O	90.2%
S=c1[nH]c(-c2ccccc2)cn1-c1ccccc1	103%
O=C(Nc1ccc(S(=O)(=O)Nc2ccccc2Cl)c(Cl)c1)c1ccccn1	97.1%
CC(C)[C@H]1CC[C@H](C(=O)N[C@H](Cc2ccccc2)C(=O)O)CC1	85.6%

Study 4 — observed: cell-free assay; technique: competition with immobilised ligand; concentration: 1 µM
Structure (SMILES): COc1ccc2c(c1)O[C@@H](c1ccc(OC)c(OC)c1)C[C@H]2NC(=O)C1(c2ccc3c(c2)OC(F)(F)O3)CC1
target	remaining binding [%]
RPS6KB1 (Homo sapiens, UniProt P23443)	81
CHUK (Homo sapiens, UniProt O15111)	95
EGFR (Homo sapiens, UniProt P00533, L861Q)	100
CHEK2 (Homo sapiens, UniProt O96017)	84
PKN2 (Homo sapiens, UniProt Q16513)	100
Ribosomal protein S6 kinase alpha-5, N-terminal kinase domain (RPS6KA5, Homo sapiens, UniProt O75582)	100
STK26 (Homo sapiens, UniProt Q9P289)	75
PLK1 (Homo sapiens, UniProt P53350)	70
Tyrosine-protein kinase ABL1, non-phosphorylated (ABL1, Homo sapiens, UniProt P00519, T315I)	75
EGFR (Homo sapiens, UniProt P00533, A750P/del747-749)	100
PIK3CA (Homo sapiens, UniProt P42336, Q546K)	78
PTK6 (Homo sapiens, UniProt Q13882)	100
MAP3K2 (Homo sapiens, UniProt Q9Y2U5)	86
MAP2K5 (Homo sapiens, UniProt Q13163)	67
Tyrosine-protein kinase ABL1, phosphorylated (ABL1, Homo sapiens, UniProt P00519, H396P)	86

Repeated from above (study 1):
dose	notes	patients with ALT increased
30 mg once daily	adverse event grade 1	1%
30 mg once daily	adverse event grade 3	0%
